# Measurements from different studies.
# Protocols differ between the studies behind these lines. Values joined by “and” are separate records of one study, mostly repeats; a detail may differ. ± gives the spread as reported.
# Genome polyprotein NS3 helicase domain: Genome polyprotein, NS3 helicase domain (Hepatitis C virus genotype 1b, UniProt Q9WMX2)
# WD repeat-containing protein 91 WD40 domain, residues 392–747: WD repeat-containing protein 91, WD40 domain, residues 392–747 (Homo sapiens, UniProt A4D1P6)
# Chain of UniProt A4D1P6 (whole entry, looked up): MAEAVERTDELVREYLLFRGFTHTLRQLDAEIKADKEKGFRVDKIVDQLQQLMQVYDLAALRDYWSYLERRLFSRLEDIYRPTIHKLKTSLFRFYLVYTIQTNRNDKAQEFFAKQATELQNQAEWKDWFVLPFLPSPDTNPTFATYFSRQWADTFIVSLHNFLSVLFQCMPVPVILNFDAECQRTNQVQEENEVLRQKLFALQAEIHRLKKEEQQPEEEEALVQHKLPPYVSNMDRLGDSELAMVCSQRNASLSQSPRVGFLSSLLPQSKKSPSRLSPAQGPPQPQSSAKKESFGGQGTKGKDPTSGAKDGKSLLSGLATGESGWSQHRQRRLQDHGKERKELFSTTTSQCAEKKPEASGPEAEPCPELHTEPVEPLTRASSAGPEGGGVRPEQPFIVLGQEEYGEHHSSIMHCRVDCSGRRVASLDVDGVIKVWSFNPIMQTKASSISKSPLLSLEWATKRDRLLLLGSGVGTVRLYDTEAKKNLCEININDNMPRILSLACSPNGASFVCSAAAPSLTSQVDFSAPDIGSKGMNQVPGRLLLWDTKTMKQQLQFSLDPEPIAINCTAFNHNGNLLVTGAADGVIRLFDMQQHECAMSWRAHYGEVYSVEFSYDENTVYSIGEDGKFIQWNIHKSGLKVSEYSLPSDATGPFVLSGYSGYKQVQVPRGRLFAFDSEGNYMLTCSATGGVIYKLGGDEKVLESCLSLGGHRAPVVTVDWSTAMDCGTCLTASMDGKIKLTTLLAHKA
# CALM1 Ca2+-bound C-lobe: Calmodulin-1, Ca2+-bound C-lobe (CALM1, Homo sapiens, UniProt P0DP23)
# Chain of UniProt P31941 (whole entry, looked up): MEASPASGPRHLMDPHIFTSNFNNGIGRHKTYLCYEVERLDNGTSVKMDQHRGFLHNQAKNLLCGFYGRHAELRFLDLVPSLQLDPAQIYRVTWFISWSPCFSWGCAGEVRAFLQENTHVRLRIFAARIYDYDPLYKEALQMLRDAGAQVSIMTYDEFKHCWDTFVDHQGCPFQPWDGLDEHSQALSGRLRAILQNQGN
# Chain of UniProt P03372 (whole entry, unmodified, looked up): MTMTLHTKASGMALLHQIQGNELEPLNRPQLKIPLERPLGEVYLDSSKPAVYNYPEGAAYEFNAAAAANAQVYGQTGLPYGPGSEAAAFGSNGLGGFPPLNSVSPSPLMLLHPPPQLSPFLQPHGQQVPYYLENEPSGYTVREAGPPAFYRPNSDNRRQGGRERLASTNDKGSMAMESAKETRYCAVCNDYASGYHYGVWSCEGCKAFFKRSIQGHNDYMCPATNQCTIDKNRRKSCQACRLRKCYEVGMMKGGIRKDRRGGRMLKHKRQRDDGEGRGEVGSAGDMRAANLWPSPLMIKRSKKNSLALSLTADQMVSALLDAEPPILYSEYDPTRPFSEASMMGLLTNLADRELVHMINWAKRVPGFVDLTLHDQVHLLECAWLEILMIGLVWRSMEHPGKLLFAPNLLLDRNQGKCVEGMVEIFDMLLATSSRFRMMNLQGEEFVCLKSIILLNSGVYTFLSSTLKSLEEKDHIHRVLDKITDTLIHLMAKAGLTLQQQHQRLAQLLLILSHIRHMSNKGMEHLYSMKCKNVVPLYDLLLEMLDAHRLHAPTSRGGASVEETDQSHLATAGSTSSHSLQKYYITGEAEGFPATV
# Chain of UniProt P34995 (whole entry, unmodified, looked up): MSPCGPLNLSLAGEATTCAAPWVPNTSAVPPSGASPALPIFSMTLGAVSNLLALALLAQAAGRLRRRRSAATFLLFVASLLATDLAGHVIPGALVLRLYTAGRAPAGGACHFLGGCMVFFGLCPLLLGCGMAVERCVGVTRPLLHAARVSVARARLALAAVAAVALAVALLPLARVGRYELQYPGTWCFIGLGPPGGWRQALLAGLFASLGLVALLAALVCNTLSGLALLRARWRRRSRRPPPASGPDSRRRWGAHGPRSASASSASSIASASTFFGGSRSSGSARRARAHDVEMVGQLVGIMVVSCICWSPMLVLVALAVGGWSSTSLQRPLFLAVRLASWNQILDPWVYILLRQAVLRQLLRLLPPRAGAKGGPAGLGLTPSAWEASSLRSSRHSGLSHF
SMILES,target,test,test system,setting,scale,quantity,result
CCCCC[C@H](CC(=O)NO)C(=O)N[C@H](C(=O)N1CCC[C@H]1CO)C(C)C,Genome polyprotein NS3 helicase domain,"DNA binding, inhibitor",hepatitis C virus,"100 µM, together with: Cy5-dT15 DNA",,inhibition,0%
COc1ccc(-c2cc(=O)c3c(O)cc(OC)cc3o2)cc1,"Estrogen receptor (ESR1, Homo sapiens, UniProt P03372)",array formation,PRL-HeLa,,reference: EC50 ERβ over EC50 ERα,selectivity ratio,1.05
CC(C)(C)OCCC(=O)NC1CCN(c2ncnc3c2nc(-c2ccccc2Cl)n3-c2ccc(Cl)cc2)CC1,"Cannabinoid receptor 1 (CNR1, Homo sapiens, UniProt P21554)","antagonist, FLIPR calcium mobilisation",CHO-K1 expressing CNR1 and Gαq16,together with: CP55940,,Ke,1.7 nM
O=C1CC[C@H](N2Cc3cc(N4CCN(CC5CCN(c6ccc([C@@H]7c8ccc(O)cc8CC[C@@H]7c7ccccc7)cc6)CC5)CC4)ccc3C2=O)C(=O)N1,"Estrogen receptor (ESR1, Homo sapiens, UniProt P03372, Y537S)","degrader, western blot",MCF7 ESR1 Y537S,"10 and 100 nM, 7 h",,ER level reduction,> 80%
CCCCC[C@H](O)/C=C/[C@H]1[C@H](O)CC(=O)[C@@H]1C/C=C\CCCC(=O)O,"Prostaglandin E2 receptor EP1 subtype (PTGER1, Homo sapiens, UniProt P34995, R355A)","IP1 accumulation, agonist",AD293,"1 h, EP1 R355A mutant",,Emax,16.5 ± 5.95%
Cc1nc2sccn2c(=O)c1CCN1CCC(=C(c2ccc(F)cc2)c2ccc(F)cc2)CC1,Genome polyprotein NS3 helicase domain,"DNA binding, inhibitor",hepatitis C virus,"100 µM, together with: Cy5-dT15 DNA",,inhibition,0%
C=CC(=O)N1CCN(c2ccc(C)o2)C(=O)C1,"14-3-3 protein sigma, with ERα phosphopeptide (SFN, Homo sapiens, UniProt P31947)","binding, fluorescence polarization",,"covalent ligand screen, together with: phosphorylated ERalpha peptide",reference: control,FP signal,91%
O=C(Nc1ccc(F)cc1)Nc1cccc2c1CCN(C(=O)c1cc3cccn3cn1)C2,"WD repeat-containing protein 91 WD40 domain, residues 392–747",SPR,,45 µM,,binding,-44% and -13%
CCC1(O)CCCN(C(=O)c2ccc(-c3ccc(F)c(NC(=O)CCl)c3)cc2)C1 (centres unmarked),"DNA dC->dU-editing enzyme APOBEC-3A (Homo sapiens, UniProt P31941)","covalent adduct, intact protein MS",,"3 h, 20-fold excess, 500 µM",,unmodified protein,0%
CCCCCCCCCC(=O)NC(CN1CCOCC1)[C@H](O)c1ccccc1.Cl (mixture of isomers),Genome polyprotein NS3 helicase domain,"DNA binding, inhibitor",hepatitis C virus,"100 µM, together with: Cy5-dT15 DNA",,inhibition,2%
Cc1cc(NC(=O)c2cccc(NC(=O)/C=C/CN(C)C)c2)ccc1Nc1nccc(-c2cccnc2)n1,"Mitogen-activated protein kinase 8 (MAPK8, Homo sapiens, UniProt P45983)","enzyme activity, inhibitor",,"0.1829 µM, 18 h, unit not given, together with: GSH 10 mM pre-incubation",reference: vehicle,remaining activity,0.965
N#CC1CCN(C(=O)c2ccc(OC3CCC3)cc2)CC1,"WD repeat-containing protein 91 WD40 domain, residues 392–747","binding, SPR single-concentration screen",,45 µM,,SPR response,-1.8 RU and -9.2 RU
O=c1nc(SCc2cc(F)cc(C(F)(F)F)c2)nc(SCc2ccc3sccc3c2)[nH]1,"DNA topoisomerase 2-alpha (TOP2A, Homo sapiens, UniProt P11388)",ATPase activity,,"15.6 µM, together with: ATP 0.025 mM",,ATP hydrolysis rate,0.259 µM/min and 0.529 µM/min
CC[C@H](C)[C@H](NC(=O)[C@H](CCCCN)NC(=O)CNC(=O)[C@@H](NC(=O)[C@@H](NC(=O)[C@H](CCSC)NC(=O)[C@H](Cc1c[nH]cn1)NC(=O)CN)[C@@H](C)O)C(C)C)C(=O)N[C@@H](Cc1ccc(O)cc1)C(=O)N[C@@H](C)C(=O)N[C@@H](C)C(=O)N[C@@H](CCSC)C(=O)N[C@@H](CCSC)C(=O)N[C@H](C(=O)N[C@@H](CCSC)C(=O)N[C@@H](CCC(=O)O)C(=O)N[C@@H](Cc1ccc(O)cc1)C(=O)N[C@@H](Cc1ccc(O)cc1)C(=O)N[C@@H](CCCNC(=N)N)C(=O)N[C@@H](CCC(N)=O)C(=O)N[C@@H](CO)C(=O)N[C@@H](CCCCN)C(=O)N[C@@H](C)C(=O)N[C@@H](CCCCN)C(=O)N[C@@H](CCCCN)C(=O)N[C@@H](CC(C)C)C(=O)N[C@@H](CCC(N)=O)C(=O)N[C@@H](C)C(=O)N[C@@H](CCSC)C(=O)N[C@@H](CCCNC(=N)N)C(=O)O)[C@@H](C)CC,CALM1 Ca2+-bound C-lobe,"binding, isothermal titration calorimetry",,"pH 7.4, 15 °C, Ca2+-bound C-lobe, together with: CaV2.1 IQ peptide",,stoichiometry,0.92 ± 0.1
Nc1ncnc2c1ncn2[C@@H]1O[C@H](C[C@@H](N)CC[C@H](N)C(=O)O)[C@@H](O)[C@H]1O,"O-methyltransferase (Sorghum bicolor, UniProt A0A1B6PFV1)",,,"concentration not given, together with: RSV+",,ΔH of binding,-3.17 ± 0.119 kcal/mol
NC/C(=C\F)COc1cccc(Cn2c(=S)[nH]c(=O)c3[nH]cnc32)c1,"Myeloperoxidase (MPO, Homo sapiens, UniProt P05164)","H2O2 consumption, inhibitor, H2O2 electrode",,"10 µM, 0.3 s",,H2O2 concentration,-0.103 µM
O=C(O)C1CN(CCCP(=O)(O)O)CCN1 (racemic),Genome polyprotein NS3 helicase domain,"DNA binding, inhibitor",hepatitis C virus,"100 µM, together with: Cy5-dT15 DNA",,inhibition,1%
Cc1ccccc1C1CC(=O)c2c(C)nc(N)nc2C1 (centres unmarked),"WD repeat-containing protein 91 (Homo sapiens, UniProt A4D1P6)","binding, affinity selection mass spectrometry",,,reference: other proteins in batch,fold enrichment,0.895
CC(C)NCC(O)COc1cccc2ccccc12 (centres unmarked),"Glutamate receptor 2 (Homo sapiens, UniProt P42262)","ion current, agonist, SyncroPatch patch clamp",HEK293,3 µM,,activation,3%
N#CC1CCN(C(=O)c2ccc(CCc3c[nH]c4nc(N)[nH]c(=O)c34)cc2)CC1,"WD repeat-containing protein 91 WD40 domain, residues 392–747",SPR,,45 µM,,binding,6% and -10%
COc1cc(/C=C/C(=O)/C=C/c2ccc(O)c(OC)c2)ccc1O,haemin,"binding, isothermal titration calorimetry",,"pH 7.4, 37 °C",,ΔH,-99.77 ± 0.13 kJ/mol
C=CC(=O)N1CCC(C(=O)NCC(=O)N2CCN(c3nc(-c4cnc(N)nc4C(F)F)nc(N4CCOCC4)n3)CC2)CC1,"Serine/threonine-protein kinase WNK1 (WNK1, Homo sapiens, UniProt Q9H4A3)",KINOMEscan,,1 µM,,remaining binding,99%
CC[C@H](C)[C@H](NC(=O)[C@H](CCCCN)NC(=O)CNC(=O)[C@@H](NC(=O)[C@@H](NC(=O)[C@H](CCSC)NC(=O)[C@H](Cc1c[nH]cn1)NC(=O)CN)[C@@H](C)O)C(C)C)C(=O)N[C@@H](Cc1ccc(O)cc1)C(=O)N[C@@H](C)C(=O)N[C@@H](C)C(=O)N[C@@H](CCSC)C(=O)N[C@@H](CCSC)C(=O)N[C@H](C(=O)N[C@@H](CCSC)C(=O)N[C@@H](CCC(=O)O)C(=O)N[C@@H](C)C(=O)N[C@@H](Cc1ccc(O)cc1)C(=O)N[C@@H](CCCNC(=N)N)C(=O)N[C@@H](CCC(N)=O)C(=O)N[C@@H](CO)C(=O)N[C@@H](CCCCN)C(=O)N[C@@H](C)C(=O)N[C@@H](CCCCN)C(=O)N[C@@H](CCCCN)C(=O)N[C@@H](CC(C)C)C(=O)N[C@@H](CCC(N)=O)C(=O)N[C@@H](C)C(=O)N[C@@H](CCSC)C(=O)N[C@@H](CCCNC(=N)N)C(=O)O)[C@@H](C)CC,CALM1 Ca2+-bound C-lobe,"binding, isothermal titration calorimetry",,"pH 7.4, 15 °C, C-lobe, CaV2.1 IQ domain, together with: Ca2+",,ΔS,25.6 ± 1.2 cal/mol/K
